Published values gathered from unrelated publications.
Parts stem from different laboratories: compare values within a part only. Changes are numbered by the printed parent chain.

Series 1
Target: Histone acetyltransferase KAT6A, winged helix 2, GST fusion (KAT6A, Homo sapiens, UniProt Q92794, residues 85-181)
Technique: protein binding microarray
Form: double-stranded DNA, one strand shown
Medium: in vitro
Tested at: not given
Setting: 8-mer, flanks averaged, mean of 2 arrays, mostly near background
Reference: not given
Reading: higher = stronger binding
Target sequence (chain): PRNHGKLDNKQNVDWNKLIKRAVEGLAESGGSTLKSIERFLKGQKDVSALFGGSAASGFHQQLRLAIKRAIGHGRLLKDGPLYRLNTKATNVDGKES
Strand | E-score
GATGGTAC | -0.13
GGCAAATA | 0.101
AATCGGAA | 0.083
ATTAGAGA | 0.00623
CCCTTAGG | 0.101
AAAAGAAC | -0.107
ATCTAGCA | -0.0456
AACACATT | -0.0538
CAATAGGA | -0.196
CGTCTGGA | 0.0458
AGATGCGG | 0.139
ACGAGGTA | -0.097
AGAGGTTA | -0.0366

Series 2
Target: TAR DNA-binding protein 43, full length, His tag (TARDBP, Homo sapiens, UniProt Q13148, residues 1-414)
Technique: RNA Bind-n-Seq
Form: RNA
Medium: in vitro
Tested at: 20 nM
Setting: 6-mer, flanks averaged, single round
With: 150 mM LiCl
Reference: input library
Reading: higher = stronger binding
Strand | 6-mer enrichment (R)
CUGGAG | 0.965
GCCACU | 0.911
UUAUGA | 1.01
AUUUGC | 1.04
CAUUCA | 0.861
AGGUGU | 1.35

Series 3
Target: ABI1, truncated, D143A, DHFR fusion (Arabidopsis thaliana, UniProt P49597)
Technique: DHFR PCA, dose-response
Medium: yeast
Setting: Hill fit, mean, not affinity
With: (+)-ABA, dose series
Reading: lower = more sensitive
Starting sequence: PYL1, truncated, DHFR fusion (Arabidopsis thaliana, UniProt Q8VZS8); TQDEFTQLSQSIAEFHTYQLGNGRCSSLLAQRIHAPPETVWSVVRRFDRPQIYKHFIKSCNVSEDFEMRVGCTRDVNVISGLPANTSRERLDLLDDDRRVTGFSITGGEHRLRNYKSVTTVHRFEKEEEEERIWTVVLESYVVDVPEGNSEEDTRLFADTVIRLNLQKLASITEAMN
Variant | ABA EC50 [µM]
N177I | 2.64
M176R | 2.51
G23P | 54.7
V44S | 412
T1P | 2.22
D95Y | 77.3

Mixed results
Molecule | target | test | test system | conditions | how to read | quantity | result
PhoQ, residues 284 288 289 292 302 303 MLMVEA | PhoP, residues 12 14 15 18 19 LWHSL (Escherichia coli, UniProt P23836) | Sort-seq, refers to: YFP reporter | E. coli | PhoQ-PhoP variant library, with: 10 µM Mg2+ | reference: high Mg2+ state, higher = stronger signaling | fold induction | 10.7

For quick reference, copied from above (series 1):
Strand | E-score
CAATAGGA | -0.196
CGTCTGGA | 0.0458
ATTAGAGA | 0.00623
